Assay results from different studies.
Protocols differ between the studies behind these lines. ± marks the error that the study gave.

SMILES = [O-][n+]1c2cc3ccccc3cc2[n+]([O-])c2c(O)cccc21; assay = PAMPA; system = artificial membrane in PBS; conditions = 50 µM, 5 h; endpoint = log effective permeability; value = -7.23
SMILES = O=S(=O)(O)c1nc2ccccc2s1; assay = SPME sorption isotherm; system = PBS; endpoint = log Freundlich coefficient; value = 0.42
SMILES = CC[C@H](C)[C@H](NC(C)=O)C(=O)N[C@H]1CSSC[C@@H](C(=O)N[C@H](C(N)=O)[C@@H](C)O)NC(=O)[C@H](CCCNC(=N)N)NC(=O)[C@H](Cc2c[nH]cn2)NC(=O)[C@H](C)NC(=O)CNC(=O)[C@H](Cc2c[nH]c3ccccc23)NC(=O)[C@H](CC(=O)O)NC(=O)[C@H](CCC(N)=O)NC(=O)[C@H](Cc2cn(C)c3ccccc23)NC(=O)[C@H](C(C)C)NC1=O; assay = RP-HPLC, C18; system = 28% acetonitrile isocratic; conditions = pH 7.4; endpoint = log retention factor; value = 0.771
SMILES = CCOC(=O)Oc1cccc2c1[n+]([O-])c1cccc(O)c1[n+]2[O-]; assay = PAMPA; system = artificial membrane in PBS; conditions = 50 µM, 5 h; endpoint = log effective permeability; value = -7.32
SMILES = CC(=O)N[C@@H](CC(N)=O)C(=O)N[C@@H](CCCNC(=N)N)C(=O)N[C@@H](CC(C)C)C(=O)N[C@H]1CSSC[C@@H](C(=O)N[C@H](C(N)=O)[C@@H](C)O)NC(=O)[C@H](CCCNC(=N)N)NC(=O)[C@H](Cc2c[nH]cn2)NC(=O)[C@H](Cc2cccc3ccccc23)NC(=O)CNC(=O)[C@H](Cc2c[nH]c3ccccc23)NC(=O)[C@H](CC(=O)O)NC(=O)[C@H](CCC(N)=O)NC(=O)[C@H](Cc2c[nH]c3ccccc23)NC(=O)[C@H](C(C)C)NC1=O; assay = isocratic RP-HPLC, C18; system = 32% acetonitrile, phosphate pH 7.4, 1% TFA; conditions = 25 °C; endpoint = log retention factor; value = 0.43
SMILES = COc1ccc2cc(CCC[18F])ccc2c1; system = n-octanol/0.1 M phosphate buffer; conditions = pH 7.4, 25 °C, per radiosynthesis batch; endpoint = log P; value = 2.43
SMILES = CCOC(=O)COc1cccc2c1[n+]([O-])c1cc(Br)c(Br)cc1[n+]2[O-]; assay = PAMPA; system = artificial membrane in PBS; conditions = 50 µM, 5 h; endpoint = log effective permeability; value = -5.24
SMILES = Oc1ccc(Br)c2cccnc12; system = oil/water; conditions = pH 5.4; endpoint = log P; value = 1.95
SMILES = COc1cc2nc(c1)CNCc1cc(OC)cc(n1)CNC2; assay = protonation constant, potentiometry; conditions = 298 K, ionic strength 0.15 M NaCl; endpoint = log K1; value = 8.04
SMILES = [Cl-].[Cl-].[Os+2].c1cnc2c(c1)ccc1cccnc12.c1cnc2c(c1)ccc1cccnc12.c1cnc2c(c1)ccc1cccnc12; assay = shake flask; system = 1-octanol/phosphate buffer; conditions = pH 7.4; endpoint = log D; value = -1.7 ± 0.035
SMILES = CCOC(=O)Oc1cccc2c1[n+]([O-])c1cccc(OC(=O)OCC)c1[n+]2[O-]; assay = PAMPA; system = artificial membrane in PBS; conditions = 50 µM, 5 h; endpoint = log effective permeability; value = -4.75
SMILES = O=c1[nH]c2ccccc2s1; assay = SPME sorption isotherm; system = PBS; endpoint = log Freundlich coefficient; value = 1.33
SMILES = C[C@@H](Oc1cc(-c2cnn(C3CCNCC3)c2)cnc1N)c1c(Cl)ccc(F)c1Cl; system = porcine brain polar lipids; conditions = 10 µM, pH 7.4, 0.2% DMSO; endpoint = log D brain polar lipid; value = 2.61 ± 0.01
SMILES = CC[C@H](C)[C@H](NC(C)=O)C(=O)N[C@H]1CSSC[C@@H](C(=O)N[C@H](C(N)=O)[C@@H](C)O)NC(=O)[C@H](CCCNC(=N)N)NC(=O)[C@H](Cc2c[nH]cn2)NC(=O)[C@](C)(CC)NC(=O)CNC(=O)[C@H](Cc2c[nH]c3ccccc23)NC(=O)[C@H](CC(=O)O)NC(=O)[C@H](CCC(N)=O)NC(=O)[C@H](Cc2c[nH]c3ccccc23)NC(=O)[C@H](C(C)C)NC1=O; assay = RP-HPLC, C18; system = 28% acetonitrile isocratic; conditions = pH 7.4; endpoint = log retention factor; value = 0.548
SMILES = CC(C)NCC(O)COc1ccc(CC(N)=O)cc1 (centres unmarked); assay = SPME sorption isotherm; system = PBS; endpoint = log Freundlich coefficient; value = 0.99
SMILES = Cc1cc2c(cc1C)[n+]([O-])c1c(O)cccc1[n+]2[O-]; assay = PAMPA; system = artificial membrane in PBS; conditions = 50 µM, 5 h; endpoint = log effective permeability; value = -5.45
SMILES = CC[C@H](C)[C@H](N)C(=O)N[C@H]1CSSC[C@@H](C(=O)N[C@H](C(N)=O)[C@@H](C)O)NC(=O)[C@H](CCCNC(=N)N)NC(=O)[C@H](Cc2c[nH]cn2)NC(=O)[C@H](Cc2c[nH]cn2)NC(=O)CNC(=O)[C@H](Cc2c[nH]c3ccccc23)NC(=O)[C@H](CC(=O)O)NC(=O)[C@H](CCC(N)=O)NC(=O)[C@H](C(C)C)NC(=O)[C@H](C(C)C)NC1=O; assay = RP-HPLC, C18; system = 28% acetonitrile isocratic; conditions = pH 7.4; endpoint = log retention factor; value = -0.09
SMILES = c1cc2nc(c1)CNCc1cccc(n1)CNC2; assay = protonation constant, potentiometry; conditions = 298 K, ionic strength 0.15 M NaCl; endpoint = log K1; value = 8.27
SMILES = C[Si](C)(C)O[Si](C)(C)O[Si](C)(C)C; system = 1-octanol/air; conditions = 25 °C; endpoint = log KOA; value = 3.75
SMILES = O=C(Nc1cnn2ccc(N3CCC[C@@H]3c3cc(F)ccc3F)nc12)N1CC[C@H](O)C1; system = porcine brain polar lipids; conditions = 10 µM, pH 7.4, 0.2% DMSO; endpoint = log D brain polar lipid; value = 0.06 ± 0.06
SMILES = O=C(O)c1ccc2c(c1)nc(NCc1ccccc1)c1ncccc12; assay = PAMPA; system = PBS; conditions = 5 h, pH 7.4; endpoint = log Papp; value = -5.19
SMILES = CCN(CC)C(=O)COc1cccc2c1[n+]([O-])c1cc(C)c(C)cc1[n+]2[O-]; assay = PAMPA; system = artificial membrane in PBS; conditions = 50 µM, 5 h; endpoint = log effective permeability; value = -5.18
SMILES = COc1ccc2c(c1)c(CC(=O)O)c(C)n2C(=O)c1ccc(Cl)cc1; assay = SPME sorption isotherm; system = PBS; endpoint = log Freundlich coefficient; value = 1.18
SMILES = c1ccc2cc3ccccc3cc2c1; system = fresh water; conditions = 12 (unit not given), 20 °C, S100 sampler, 100 µm; endpoint = log K(PDMS-water); value = 3.88 ± 0.01
SMILES = C=CC[C@@]1(C)NC(=O)CNC(=O)[C@H](Cc2c[nH]c3ccccc23)NC(=O)[C@H](CC(=O)O)NC(=O)[C@H](CCC(N)=O)NC(=O)[C@H](Cc2c[nH]c3ccccc23)NC(=O)[C@H](C(C)C)NC(=O)[C@@H](NC(=O)[C@@H](NC(C)=O)[C@@H](C)CC)CSSC[C@@H](C(=O)N[C@H](C(N)=O)[C@@H](C)O)NC(=O)[C@H](CCCNC(=N)N)NC(=O)[C@H](Cc2c[nH]cn2)NC1=O; assay = RP-HPLC, C18; system = 28% acetonitrile isocratic; conditions = pH 7.4; endpoint = log retention factor; value = 0.613
SMILES = c1ccc2c(c1)ccc1ccccc12; system = fresh water; conditions = 12 (unit not given), 20 °C; endpoint = log K(PDMS-water); value = 3.78 ± 0.03
SMILES = CC(=O)N[C@@H](CC(N)=O)C(=O)N[C@@H](CC(N)=O)C(=O)N[C@@H](CC(C)C)C(=O)N[C@H]1CSSC[C@@H](C(=O)N[C@H](C(N)=O)[C@@H](C)O)NC(=O)[C@H](CCCNC(=N)N)NC(=O)[C@H](Cc2c[nH]cn2)NC(=O)[C@H](C)NC(=O)CNC(=O)[C@H](Cc2c[nH]c3ccccc23)NC(=O)[C@H](CC(=O)O)NC(=O)[C@H](CCC(N)=O)NC(=O)[C@H](Cc2c[nH]c3ccccc23)NC(=O)[C@H](C(C)C)NC1=O; assay = RP-HPLC, C18; system = 28% acetonitrile isocratic; conditions = pH 7.4; endpoint = log retention factor; value = 0.02
SMILES = CCCCC(=O)Oc1cccc2c1[n+]([O-])c1cccc(OC(=O)CCCC)c1[n+]2[O-]; assay = PAMPA; system = artificial membrane in PBS; conditions = 50 µM, 5 h; endpoint = log effective permeability; value = -7.74
SMILES = CC[C@H](C)[C@H](NC(C)=O)C(=O)N[C@H]1CSSC[C@@H](C(=O)N[C@H](C(N)=O)[C@@H](C)O)NC(=O)[C@H](CCCNC(=N)N)NC(=O)[C@H](Cc2c[nH]cn2)NC(=O)[C@H](C)NC(=O)CNC(=O)[C@H](Cc2c[nH]c3ccccc23)NC(=O)[C@H](CC(=O)O)NC(=O)[C@H](CCC(N)=O)NC(=O)[C@H](Cc2c[nH]c3ccccc23)NC(=O)[C@H](C(C)C)NC1=O; assay = isocratic RP-HPLC, C18; system = 32% acetonitrile, phosphate pH 7.4, 1% TFA; conditions = 25 °C; endpoint = log retention factor; value = -0.018
SMILES = CCOC(=O)COc1cccc2c1[n+]([O-])c1cc(C)c(C)cc1[n+]2[O-]; assay = PAMPA; system = artificial membrane in PBS; conditions = 50 µM, 5 h; endpoint = log effective permeability; value = -4.93
SMILES = CC[C@H](C)[C@H](NC(=O)[C@H](CO)NC(=O)[C@H](CCCNC(=N)N)NC(C)=O)C(=O)N[C@H]1CSSC[C@@H](C(=O)N[C@H](C(N)=O)[C@@H](C)O)NC(=O)[C@H](CCCNC(=N)N)NC(=O)[C@H](Cc2c[nH]cn2)NC(=O)[C@H](C)NC(=O)CNC(=O)[C@H](Cc2c[nH]c3ccccc23)NC(=O)[C@H](CC(=O)O)NC(=O)[C@H](CCC(N)=O)NC(=O)[C@H](Cc2ccc3ccccc3c2)NC(=O)[C@H](C(C)C)NC1=O; assay = isocratic RP-HPLC, C18; system = 32% acetonitrile, phosphate pH 7.4, 1% TFA; conditions = 25 °C; endpoint = log retention factor; value = 0.091
SMILES = C[Si](C)(C)O[Si](C)(C)C; system = 1-octanol/water; conditions = 0.7-42 µg/L in water, 12.4 °C; endpoint = log KOW; value = 5.05

Excerpt of the above:
SMILES = CC[C@H](C)[C@H](NC(C)=O)C(=O)N[C@H]1CSSC[C@@H](C(=O)N[C@H](C(N)=O)[C@@H](C)O)NC(=O)[C@H](CCCNC(=N)N)NC(=O)[C@H](Cc2c[nH]cn2)NC(=O)[C@H](C)NC(=O)CNC(=O)[C@H](Cc2c[nH]c3ccccc23)NC(=O)[C@H](CC(=O)O)NC(=O)[C@H](CCC(N)=O)NC(=O)[C@H](Cc2c[nH]c3ccccc23)NC(=O)[C@H](C(C)C)NC1=O; assay = isocratic RP-HPLC, C18; system = 32% acetonitrile, phosphate pH 7.4, 1% TFA; conditions = 25 °C; endpoint = log retention factor; value = -0.018
SMILES = C[Si](C)(C)O[Si](C)(C)O[Si](C)(C)C; system = 1-octanol/air; conditions = 25 °C; endpoint = log KOA; value = 3.75
SMILES = COc1ccc2c(c1)c(CC(=O)O)c(C)n2C(=O)c1ccc(Cl)cc1; assay = SPME sorption isotherm; system = PBS; endpoint = log Freundlich coefficient; value = 1.18
SMILES = CC(=O)N[C@@H](CC(N)=O)C(=O)N[C@@H](CC(N)=O)C(=O)N[C@@H](CC(C)C)C(=O)N[C@H]1CSSC[C@@H](C(=O)N[C@H](C(N)=O)[C@@H](C)O)NC(=O)[C@H](CCCNC(=N)N)NC(=O)[C@H](Cc2c[nH]cn2)NC(=O)[C@H](C)NC(=O)CNC(=O)[C@H](Cc2c[nH]c3ccccc23)NC(=O)[C@H](CC(=O)O)NC(=O)[C@H](CCC(N)=O)NC(=O)[C@H](Cc2c[nH]c3ccccc23)NC(=O)[C@H](C(C)C)NC1=O; assay = RP-HPLC, C18; system = 28% acetonitrile isocratic; conditions = pH 7.4; endpoint = log retention factor; value = 0.02
SMILES = [O-][n+]1c2cc3ccccc3cc2[n+]([O-])c2c(O)cccc21; assay = PAMPA; system = artificial membrane in PBS; conditions = 50 µM, 5 h; endpoint = log effective permeability; value = -7.23
